Published values collected from several papers.
Each line is one published result; not all experiments were run side by side. Several values in a cell are separate wells, animals, samples, runs or records. ± marks the error that the study gave.

The half-life of `Oc1ccc(C(c2ccc(O)cc2)(C(F)(F)F)C(F)(F)F)cc1` is reported as 12.8 h (female rat, plasma; oral, 110 mg/kg, single dose).
The half-life of `Cc1cc(C(=O)NC(C)(C)COc2cccc3c2C(N)=NS(=O)(=O)N3)cc(C)n1` is reported as 0.842 h (male Sprague-Dawley rat, plasma; oral, 100 mg/kg, single dose).
With `Cn1c(-c2ccc(C(N)=O)cc2F)nnc1C(C)(C)Oc1c(F)cc(Cl)cc1F` the half-life was 15.9 h (elderly non-Japanese subjects, plasma; oral, 20 mg single dose, day 1, mean).
`C[C@@H]1CCC[C@H](n2cnc(-c3cc(Cl)ccc3-n3cc(Cl)nn3)cc2=O)c2cc(ccn2)-c2c(cnn2C(F)F)NC1=O` gave a half-life of 9.9 h (human, plasma; oral, 60 mg, single dose, fasted, healthy volunteers).
`Cn1nnc2c(C(N)=O)ncn2c1=O` gave a half-life of 1.9 h and 1.4 h and 1.6 h and 1.8 h (athymic rat, male, intracranial U87 glioma, tumour extracellular fluid, microdialysate; oral, 50 mg/kg, before cediranib).
For `COc1cccc(-c2ccc(NC(=O)C3=C(C(=O)O)CCC3)c(F)c2)c1`, the half-life was 28.6 h (male human, plasma; oral, 40 mg, multiple doses, once daily).
`CNCc1ccc(-c2[nH]c3cc(F)cc4c3c2CCNC4=O)cc1` has a half-life of 15 h (human patients, plasma; oral, 500 mg once daily, day 1, single dose, arithmetic mean).
`C#C[C@]1(CO)O[C@@H](n2cnc3c(N)nc(F)nc32)C[C@@H]1O` has a half-life of 58.9 h (human, plasma; oral, 100 mg, single dose, fasted, healthy volunteers).
The half-life of `Cc1nc2cccc(OCC(C)(C)C(=O)NC(C)C)c2c(N)c1C(=O)O` is reported as 0.71 h (male Sprague-Dawley rat, plasma; oral gavage, 100 mg/kg, day 1).
The half-life of `CCN1CCN(c2ccc(Nc3cc(N(C)C(=O)Nc4c(Cl)c(OC)cc(OC)c4Cl)ncn3)cc2)CC1` is reported as 3.67 h (LC-MS/MS; juvenile male Crl:WI(Han) rats, plasma; oral gavage, 1.0 mg/kg/day, postnatal day 17).
`CCCOc1ccc([C@H]2CNC(=O)N2c2ccc3[nH]cnc3c2)cc1` gave a half-life of 7.58 h (human, plasma; oral, 500 mg, multiple doses, twice daily, fasted).
With `CC(C)(c1ccc(O)cc1)c1ccc(O)cc1` the half-life was 6.35 h (GC-MS; exposure tank water with snails, charcoal-filtered tap water; 500 ng/L nominal, 22 °C).
For `CCCC[C@H](NC(C)=O)C(=O)N[C@H]1CCC(=O)NC[C@@H](C(=O)N[C@@H](Cc2c[nH]c3ccccc23)C(N)=O)NC(=O)[C@H](CCCNC(=N)N)NC(=O)[C@@H](Cc2ccccc2)NC(=O)[C@H](Cc2c[nH]cn2)NC1=O`, the half-life was 8.78 h (male Sprague-Dawley rat, plasma; subcutaneous, 5 mg/kg, multiple doses, once daily).
The half-life of `CC(C)=CCC[C@](C)(O[C@@H]1O[C@H](CO)[C@@H](O)[C@H](O)[C@H]1O)[C@H]1CC[C@]2(C)[C@@H]1[C@H](O)C[C@@H]1[C@@]3(C)CC[C@H](O[C@@H]4O[C@H](CO)[C@@H](O)[C@H](O)[C@H]4O[C@@H]4O[C@H](CO)[C@@H](O)[C@H](O)[C@H]4O)C(C)(C)[C@@H]3CC[C@]12C` is reported as 6.9 ± 2.5 h (Sprague Dawley rats, male, plasma; oral, 42 mg/kg, aqueous solution, with: co-dosed pure ginsenoside mixture).
`Nc1ccc(-c2nc([C@H]3CCc4cc(-c5cc(Cl)ccc5-n5cnnn5)cc(=O)n43)c(F)[nH]2)c(F)n1` has a half-life of 17.1 h (human, plasma; oral, 80 mg, single dose, fasted).

For quick reference, copied from above:
The half-life of `Cc1nc2cccc(OCC(C)(C)C(=O)NC(C)C)c2c(N)c1C(=O)O` is reported as 0.71 h (male Sprague-Dawley rat, plasma; oral gavage, 100 mg/kg, day 1).
For `COc1cccc(-c2ccc(NC(=O)C3=C(C(=O)O)CCC3)c(F)c2)c1`, the half-life was 28.6 h (male human, plasma; oral, 40 mg, multiple doses, once daily).
